Assay results pooled from the literature.
Parts stem from different laboratories: compare values within a part only. Changes are numbered by the printed parent chain.

Block 1 — technique: universal PBM; molecule type: double-stranded DNA, one strand shown; matrix: in vitro; concentration: 600 nM; direction: higher = stronger binding
Target: Sal-like protein 4, full length isoform A (SALL4, Homo sapiens, UniProt Q9UJQ4, residues 1-1053)
Chain of UniProt Q9UJQ4 (whole entry, looked up): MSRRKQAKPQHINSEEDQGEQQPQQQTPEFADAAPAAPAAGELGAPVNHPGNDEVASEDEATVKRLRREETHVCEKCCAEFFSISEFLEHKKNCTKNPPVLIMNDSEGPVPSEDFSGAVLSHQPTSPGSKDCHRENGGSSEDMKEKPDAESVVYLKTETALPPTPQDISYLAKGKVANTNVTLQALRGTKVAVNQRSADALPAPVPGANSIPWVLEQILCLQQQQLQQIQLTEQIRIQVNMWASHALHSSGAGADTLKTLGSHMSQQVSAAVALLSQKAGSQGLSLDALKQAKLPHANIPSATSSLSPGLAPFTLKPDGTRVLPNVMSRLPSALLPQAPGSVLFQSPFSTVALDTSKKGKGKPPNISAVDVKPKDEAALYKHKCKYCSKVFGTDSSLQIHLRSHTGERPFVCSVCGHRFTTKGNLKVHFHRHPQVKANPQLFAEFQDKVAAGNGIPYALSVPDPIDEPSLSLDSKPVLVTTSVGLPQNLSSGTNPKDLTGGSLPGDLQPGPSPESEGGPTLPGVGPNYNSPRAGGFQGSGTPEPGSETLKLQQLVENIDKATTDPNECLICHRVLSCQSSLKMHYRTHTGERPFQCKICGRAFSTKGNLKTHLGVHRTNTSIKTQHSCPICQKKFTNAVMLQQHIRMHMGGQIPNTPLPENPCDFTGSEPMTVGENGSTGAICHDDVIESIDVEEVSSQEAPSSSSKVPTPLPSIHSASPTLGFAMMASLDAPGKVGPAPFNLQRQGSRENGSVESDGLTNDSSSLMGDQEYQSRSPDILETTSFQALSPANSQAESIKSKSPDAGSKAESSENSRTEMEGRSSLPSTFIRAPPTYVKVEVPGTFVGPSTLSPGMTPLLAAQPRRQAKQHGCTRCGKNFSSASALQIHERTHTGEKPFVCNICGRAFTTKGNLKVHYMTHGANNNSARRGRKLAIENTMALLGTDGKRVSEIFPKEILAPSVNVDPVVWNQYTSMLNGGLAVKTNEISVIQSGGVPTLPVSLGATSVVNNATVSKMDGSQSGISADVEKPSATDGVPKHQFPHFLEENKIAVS
Setting: 8-mer, flanks averaged, mean of replicates
| Sequence | E-score |
| --- | --- |
| GGAGGAGA | -0.159 |
| TGTACGAA | 0.207 |
| CAGCCAAC | -0.138 |
| GCCCAGCA | -0.309 |
| AAAAGTAC | 0.191 |
| AGTTTTTC | 0.141 |
| CATTACGA | 0.132 |
| AGGTCAAT | 0.172 |

Block 2 — technique: protein-binding microarray; molecule type: double-stranded DNA, one strand shown; matrix: in vitro; concentration: not given; direction: higher = stronger binding
Target: Max dimerization protein 1, bHLH-zipper, MAX partner unstated (MXD1, Homo sapiens, UniProt Q05195, residues 56-136)
Setting: k-mer, scored over probes, only values ≥0.25
Construct (chain): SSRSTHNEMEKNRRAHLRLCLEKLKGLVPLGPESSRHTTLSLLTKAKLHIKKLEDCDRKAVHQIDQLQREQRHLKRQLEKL
| Sequence | E-score |
| --- | --- |
| CATGTATC | 0.286 |
| AGGCCACG | 0.268 |
| CACGTTTA | 0.308 |
| CGCCATGC | 0.359 |
| GCCACCCC | 0.251 |
| CATGCTAA | 0.259 |
| GCACGTGA | 0.477 |
| CCACGCCA | 0.257 |

Further values, each from its own experiment
P1: viral docking peptide; KGVKRKLFAEDSS; partner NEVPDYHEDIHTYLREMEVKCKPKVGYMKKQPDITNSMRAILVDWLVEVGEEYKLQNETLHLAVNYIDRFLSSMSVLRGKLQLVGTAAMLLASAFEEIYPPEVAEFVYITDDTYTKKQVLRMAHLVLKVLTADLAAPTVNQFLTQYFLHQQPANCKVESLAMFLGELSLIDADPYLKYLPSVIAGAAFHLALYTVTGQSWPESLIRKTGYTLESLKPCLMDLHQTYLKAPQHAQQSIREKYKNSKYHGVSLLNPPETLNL
| Substance | target or system | test | test system | setting | scale | endpoint | value |
| --- | --- | --- | --- | --- | --- | --- | --- |
| SAE1 (Homo sapiens, UniProt Q9UBE0) | UBA2 (Homo sapiens, UniProt Q9UBT2) | cross-linking MS | – | hits only | – | interaction screen | cross-linked |
| P1 F8V | CCNA2, cyclin fold, Cln2 fusion (human) | yeast growth competition, sequencing | yeast | strong parent motif | reference: not given, higher = stronger binding | normalised enrichment score | 0.817 |
| PRPF4 (Homo sapiens, UniProt O43172) | PRPF6 (Homo sapiens, UniProt O94906) | cross-linking MS | – | hits only | – | interaction screen | cross-linked |
| MCM3 (Homo sapiens, UniProt P25205) | MCM7 (Homo sapiens, UniProt P33993) | cross-linking MS | – | hits only | – | interaction screen | cross-linked |
| PSMD12 (Homo sapiens, UniProt O00232) | PSMD10 (Homo sapiens, UniProt O75832) | cross-linking MS | cell fractions | added: DSSO | – | cross-linked residues | K52 to K30 |

Repeated from above (block 2):
| Sequence | E-score |
| --- | --- |
| CCACGCCA | 0.257 |
| CACGTTTA | 0.308 |
